Measurements from different studies.
Lines come from different studies, so protocols differ. Numbers after ± are the reported error.
lasR: Transcriptional activator protein LasR (lasR, Pseudomonas aeruginosa, UniProt P25084)
UniProt P25084, sequence (whole entry, looked up): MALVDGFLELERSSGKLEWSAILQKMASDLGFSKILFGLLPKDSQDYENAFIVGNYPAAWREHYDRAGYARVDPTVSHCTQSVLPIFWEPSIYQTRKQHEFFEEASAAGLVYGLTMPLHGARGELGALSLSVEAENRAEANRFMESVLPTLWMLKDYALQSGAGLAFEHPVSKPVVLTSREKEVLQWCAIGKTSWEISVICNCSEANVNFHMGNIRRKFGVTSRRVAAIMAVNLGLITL
USP14: Ubiquitin carboxyl-terminal hydrolase 14 (USP14, Homo sapiens, UniProt P54578)
UniProt P54578, sequence (whole entry, looked up): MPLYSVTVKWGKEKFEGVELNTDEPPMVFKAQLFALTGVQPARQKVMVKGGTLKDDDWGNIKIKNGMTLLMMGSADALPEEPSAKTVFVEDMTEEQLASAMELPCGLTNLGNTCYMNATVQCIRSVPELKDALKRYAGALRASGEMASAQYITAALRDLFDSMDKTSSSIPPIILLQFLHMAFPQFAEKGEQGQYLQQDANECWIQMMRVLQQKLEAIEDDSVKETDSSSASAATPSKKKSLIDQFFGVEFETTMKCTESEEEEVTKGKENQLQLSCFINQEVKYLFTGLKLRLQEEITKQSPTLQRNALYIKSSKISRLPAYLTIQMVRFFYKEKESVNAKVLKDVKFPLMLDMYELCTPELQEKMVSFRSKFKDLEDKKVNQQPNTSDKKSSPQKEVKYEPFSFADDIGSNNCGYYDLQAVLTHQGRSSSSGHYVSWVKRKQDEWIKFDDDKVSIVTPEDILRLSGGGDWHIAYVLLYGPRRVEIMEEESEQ
APP: Amyloid-beta precursor protein (APP, Homo sapiens, UniProt P05067)
UniProt D0VWV4, sequence (whole entry, looked up): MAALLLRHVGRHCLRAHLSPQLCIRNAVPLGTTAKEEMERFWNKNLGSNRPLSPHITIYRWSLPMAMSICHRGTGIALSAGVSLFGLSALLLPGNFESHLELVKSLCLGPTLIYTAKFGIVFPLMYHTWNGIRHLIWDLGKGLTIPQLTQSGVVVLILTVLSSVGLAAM
UniProt Q86TI2, sequence (whole entry, looked up): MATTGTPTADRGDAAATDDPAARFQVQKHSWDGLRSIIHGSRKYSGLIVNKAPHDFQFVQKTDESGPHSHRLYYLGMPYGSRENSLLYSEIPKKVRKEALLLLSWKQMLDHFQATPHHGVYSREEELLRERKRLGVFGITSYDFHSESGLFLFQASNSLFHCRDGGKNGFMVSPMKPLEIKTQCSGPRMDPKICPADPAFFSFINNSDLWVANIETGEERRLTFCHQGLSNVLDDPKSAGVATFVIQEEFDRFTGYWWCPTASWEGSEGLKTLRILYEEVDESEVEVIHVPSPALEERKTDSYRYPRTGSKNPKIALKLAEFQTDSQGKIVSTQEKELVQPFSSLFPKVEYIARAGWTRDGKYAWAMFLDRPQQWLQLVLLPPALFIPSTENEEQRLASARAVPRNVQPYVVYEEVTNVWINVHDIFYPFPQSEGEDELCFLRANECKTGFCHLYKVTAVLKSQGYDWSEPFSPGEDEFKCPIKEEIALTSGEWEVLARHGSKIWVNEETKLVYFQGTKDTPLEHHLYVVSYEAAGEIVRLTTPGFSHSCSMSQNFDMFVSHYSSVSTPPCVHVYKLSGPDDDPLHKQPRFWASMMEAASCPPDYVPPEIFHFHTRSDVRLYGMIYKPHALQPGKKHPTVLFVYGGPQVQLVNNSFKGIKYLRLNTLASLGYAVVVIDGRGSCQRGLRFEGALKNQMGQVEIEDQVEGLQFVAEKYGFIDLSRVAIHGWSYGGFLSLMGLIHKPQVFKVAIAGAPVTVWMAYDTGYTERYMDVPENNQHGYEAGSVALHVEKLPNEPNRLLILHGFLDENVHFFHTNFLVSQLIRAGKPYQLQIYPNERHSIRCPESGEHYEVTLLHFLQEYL
UniProt P21397, sequence (whole entry, looked up): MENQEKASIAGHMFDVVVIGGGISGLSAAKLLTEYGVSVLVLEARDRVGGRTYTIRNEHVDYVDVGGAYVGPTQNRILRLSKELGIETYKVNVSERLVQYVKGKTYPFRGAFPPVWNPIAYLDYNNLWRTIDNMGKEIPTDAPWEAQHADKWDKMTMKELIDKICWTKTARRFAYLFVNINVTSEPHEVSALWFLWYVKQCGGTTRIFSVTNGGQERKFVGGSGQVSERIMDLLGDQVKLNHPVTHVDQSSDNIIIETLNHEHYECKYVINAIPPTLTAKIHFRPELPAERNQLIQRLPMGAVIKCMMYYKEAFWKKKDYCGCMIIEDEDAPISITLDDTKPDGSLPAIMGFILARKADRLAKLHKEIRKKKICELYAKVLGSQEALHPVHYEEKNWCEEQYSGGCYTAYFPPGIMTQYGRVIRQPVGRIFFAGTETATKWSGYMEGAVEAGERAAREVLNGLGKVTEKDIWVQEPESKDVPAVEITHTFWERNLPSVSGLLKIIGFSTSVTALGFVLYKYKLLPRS
UniProt Q13164, sequence (whole entry, looked up): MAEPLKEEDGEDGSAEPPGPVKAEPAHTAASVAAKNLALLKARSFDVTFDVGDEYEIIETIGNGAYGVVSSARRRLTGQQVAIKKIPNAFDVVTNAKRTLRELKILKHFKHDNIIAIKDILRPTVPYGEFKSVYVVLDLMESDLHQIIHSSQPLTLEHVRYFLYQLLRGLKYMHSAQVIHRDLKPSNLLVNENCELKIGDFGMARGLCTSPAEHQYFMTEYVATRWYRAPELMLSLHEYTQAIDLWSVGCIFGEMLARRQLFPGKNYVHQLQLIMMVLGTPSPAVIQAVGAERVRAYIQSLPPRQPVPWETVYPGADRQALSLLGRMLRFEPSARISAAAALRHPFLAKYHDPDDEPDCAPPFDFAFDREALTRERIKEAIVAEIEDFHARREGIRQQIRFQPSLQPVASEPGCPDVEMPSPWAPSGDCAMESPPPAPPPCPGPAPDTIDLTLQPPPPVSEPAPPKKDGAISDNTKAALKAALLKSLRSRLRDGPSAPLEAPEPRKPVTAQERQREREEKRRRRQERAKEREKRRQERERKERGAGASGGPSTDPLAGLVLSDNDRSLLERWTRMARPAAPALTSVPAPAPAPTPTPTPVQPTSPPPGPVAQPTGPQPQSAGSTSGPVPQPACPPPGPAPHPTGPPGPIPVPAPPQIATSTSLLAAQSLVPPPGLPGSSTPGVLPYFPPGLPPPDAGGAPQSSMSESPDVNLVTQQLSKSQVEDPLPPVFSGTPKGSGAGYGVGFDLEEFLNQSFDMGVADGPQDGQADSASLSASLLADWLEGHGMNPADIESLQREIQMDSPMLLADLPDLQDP
UniProt A5GZW8, sequence (whole entry, looked up): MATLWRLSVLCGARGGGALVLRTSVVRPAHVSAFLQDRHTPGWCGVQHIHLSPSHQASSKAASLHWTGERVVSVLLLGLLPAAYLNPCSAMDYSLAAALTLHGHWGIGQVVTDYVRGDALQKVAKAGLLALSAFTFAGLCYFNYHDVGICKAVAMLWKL
UniProt P21729, sequence (whole entry, looked up): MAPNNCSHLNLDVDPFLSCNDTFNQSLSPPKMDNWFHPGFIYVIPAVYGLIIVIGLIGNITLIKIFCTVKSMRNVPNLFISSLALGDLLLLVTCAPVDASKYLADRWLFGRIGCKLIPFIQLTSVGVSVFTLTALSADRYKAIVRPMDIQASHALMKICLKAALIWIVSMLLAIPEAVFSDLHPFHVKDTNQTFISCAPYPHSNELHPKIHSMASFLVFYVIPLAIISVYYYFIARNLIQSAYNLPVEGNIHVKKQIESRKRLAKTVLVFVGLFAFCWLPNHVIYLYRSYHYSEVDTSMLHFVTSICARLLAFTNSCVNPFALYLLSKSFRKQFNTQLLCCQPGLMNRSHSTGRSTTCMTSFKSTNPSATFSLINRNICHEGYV
UniProt Q0QF01, sequence (whole entry, looked up): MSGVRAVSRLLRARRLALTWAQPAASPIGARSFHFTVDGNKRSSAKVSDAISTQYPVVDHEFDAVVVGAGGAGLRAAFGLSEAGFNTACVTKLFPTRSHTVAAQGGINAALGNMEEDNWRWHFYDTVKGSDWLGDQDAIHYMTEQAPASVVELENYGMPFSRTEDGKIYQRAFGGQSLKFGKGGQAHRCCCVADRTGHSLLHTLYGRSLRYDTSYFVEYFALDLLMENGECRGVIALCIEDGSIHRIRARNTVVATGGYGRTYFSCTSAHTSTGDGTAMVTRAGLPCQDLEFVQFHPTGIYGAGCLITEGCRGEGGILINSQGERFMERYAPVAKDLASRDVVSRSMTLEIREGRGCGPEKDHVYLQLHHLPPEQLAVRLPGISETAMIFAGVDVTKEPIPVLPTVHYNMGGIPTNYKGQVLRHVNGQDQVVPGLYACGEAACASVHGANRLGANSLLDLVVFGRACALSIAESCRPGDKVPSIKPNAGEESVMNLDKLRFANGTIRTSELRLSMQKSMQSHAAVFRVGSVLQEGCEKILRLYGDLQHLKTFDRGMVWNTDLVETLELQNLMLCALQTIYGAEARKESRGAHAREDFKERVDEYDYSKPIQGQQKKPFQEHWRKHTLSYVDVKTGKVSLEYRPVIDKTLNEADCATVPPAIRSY
UniProt Q6W5P4, sequence (whole entry, looked up): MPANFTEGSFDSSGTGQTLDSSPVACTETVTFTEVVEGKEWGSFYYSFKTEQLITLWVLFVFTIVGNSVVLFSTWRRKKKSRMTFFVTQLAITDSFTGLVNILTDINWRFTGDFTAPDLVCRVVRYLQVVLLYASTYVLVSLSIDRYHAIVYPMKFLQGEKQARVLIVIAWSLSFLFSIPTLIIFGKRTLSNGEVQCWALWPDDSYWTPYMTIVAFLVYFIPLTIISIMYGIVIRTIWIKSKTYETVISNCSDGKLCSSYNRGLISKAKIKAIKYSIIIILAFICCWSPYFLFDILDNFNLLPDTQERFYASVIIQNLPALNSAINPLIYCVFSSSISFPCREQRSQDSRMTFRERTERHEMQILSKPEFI
UniProt P52699, sequence (whole entry, looked up): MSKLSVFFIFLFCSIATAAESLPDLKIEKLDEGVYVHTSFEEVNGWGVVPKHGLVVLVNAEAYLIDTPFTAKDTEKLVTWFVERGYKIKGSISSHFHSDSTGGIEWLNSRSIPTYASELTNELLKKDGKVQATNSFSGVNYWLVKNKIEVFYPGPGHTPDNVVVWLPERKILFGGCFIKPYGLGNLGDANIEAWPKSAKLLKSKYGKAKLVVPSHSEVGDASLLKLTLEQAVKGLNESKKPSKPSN

O=C(N[C@H]1CCOC1=O)c1ccc(-n2cc(-c3cc(F)cc(F)c3)nn2)cc1
inhibition (lasR; reporter gene, antagonist; 10 µM, with: OdDHL 10 nM): 1%

CCn1ccc(-c2cc(-c3cnn(C)c3)cc([C@@H](C)NC(=O)c3cc(OCCN(C)C)ccc3C)c2)n1
inhibition (USP14; Ub-AMC hydrolysis; up to 40 µM): no inhibition

COC1CC(=O)N(C)C=CCCCC(=O)N(C)C(C(C)C)C(=O)N(C)C(CC(C)C)C(=O)OC(C(C)C)CC(C)C1 (stereo not shown)
inhibition (Neuropeptide S receptor, isoform B (NPSR1, Homo sapiens, UniProt Q6W5P4); β-arrestin recruitment, antagonist; 20 µM): > 70%

CC[C@H](C)C(=O)N1CCC(NC(=O)Nc2ccc(OC(F)(F)F)c(F)c2)CC1
subjects with serious TEAE (healthy volunteers; oral, 8 mg single dose): 0%

C[C@@H](O)[C@H](NC(=O)[C@H](CCCCN)NC(=O)[C@H](Cc1c[nH]c2ccccc12)NC(=O)CN)C(=O)N[C@@H](CCCNC(=N)N)C(=O)NC(C)(C)C(=O)N[C@@H](CCCNC(=N)N)C(=O)NC(C)(C)C(=O)N[C@H](C(=O)N[C@@H](CO)C(=O)N[C@@H](Cc1c[nH]cn1)C(=O)N[C@@H](Cc1ccc(O)cc1)C(=O)NCC(=O)O)[C@@H](C)O
inhibition (Integrin alpha-2, I domain (Homo sapiens, UniProt P17301); binding to collagen I; up to 1×100 nM; maximal): 30%

Cc1ccc(-c2nc3ccc(/N=N/c4ccc([N+](=O)[O-])cc4)cc3c(-c3ccccc3)c2I)cc1
inhibition (APP; fibril formation, ThT fluorescence; PBS; concentration not given, 24 h, 37 °C, with: Aβ42 25 µM): 74.4 ± 2%

O=C(Cn1cc(CC2CCCCC2)nn1)N[C@H]1CCOC1=O
inhibition (lasR; reporter gene, antagonist; 100 µM, with: OdDHL 10 nM): 14%

NC1CC1c1ccc(NC(=O)C(CCc2ccccc2)NC(=O)OCc2ccccc2)cc1 (stereo not shown)
inhibition (Amine oxidase [flavin-containing] A (MAOA, Homo sapiens, UniProt P21397); enzyme activity, inhibitor, HRP-coupled; 100 µM, with: kynuramine): 87%

CCCC[C@H](NC(=O)CNC(=O)CNC(=O)c1ccc(NN)nc1)C(=O)N[C@H]1CC(=O)NCCCC[C@@H](C(N)=O)NC(=O)[C@H](Cc2c[nH]c3ccccc23)NC(=O)[C@H](CCCNC(=N)N)NC(=O)[C@@H](Cc2ccccc2)NC(=O)[C@H](Cc2c[nH]cn2)NC1=O [technetium-99m labelled]
uptake (C57 mouse, B16/F1 melanoma, kidneys; 2 h, with: NDP-MSH 6.07 nmol blockade): 7.67 ± 1.99 %ID/g

O=C(N[C@H]1CCOC1=O)c1cccc(-c2cn(-c3ccc4[nH]ccc4c3)nn2)c1
inhibition (lasR; reporter gene, antagonist; 100 µM, with: OdDHL 10 nM): 7%

CN[C@](C)(C[18F])C(=O)O
tracer uptake (SK-OV-3 tumour model; host not given, lung; 1 h, tumour-bearing): 1.6 %ID/g

COc1cc(C(=O)NCCOCCOCCOCCNC(=O)c2ccc([18F])nc2)ccc1NC(=O)C1NC(CC(C)(C)C)C(C#N)(c2ccc(Cl)cc2F)C1c1cccc(Cl)c1F (stereo not shown)
tracer uptake (SJSA-1 tumour model; host not given, heart; 1 h, tumour-bearing): 1.16 %ID/g

CCCCCc1nc2ccc(/N=N/c3ccc([N+](=O)[O-])cc3)cc2c(-c2ccccc2)c1I
inhibition (APP; amyloid aggregation, inhibitor, fluorescence; 25 µM): ~75%

CCCCCCc1cn(-c2ccc(C(=O)N[C@H]3CCOC3=O)cc2)nn1
inhibition (lasR; reporter gene, antagonist; 10 µM, with: OdDHL 10 nM): 50%

CC(=O)NC(Cc1ccc(Br)c(Cl)c1)C(=O)N[C@@H](C)C(=O)N1CCC[C@H]1C(=O)N1CCC[C@H]1C(=O)N[C@@H](CCC(=O)O)C(=O)N[C@@H](Cc1c[nH]cn1)C(=O)N[C@@H](CO)C(=O)N[C@H](C(=O)N[C@@H](C)C(N)=O)[C@@H](C)OP(=O)(O)O (stereo partly shown)
inhibition (cAMP-dependent protein kinase catalytic subunit alpha (PRKACA, Homo sapiens, UniProt P17612); enzyme activity, inhibitor; 10 µM): 0.79%

Clc1ccc(/N=N/c2ccc3nc(-c4ccccc4)c(I)c(-c4ccccc4)c3c2)cc1
inhibition (APP; amyloid aggregation, inhibitor, fluorescence; 25 µM): 49.6%

CCCCCc1cn(-c2cccc(C(=O)N[C@H]3CCOC3=O)c2)nn1
inhibition (lasR; reporter gene, antagonist; 10 µM, with: OdDHL 10 nM): 18%

CC(C)C[C@H](NC(=O)[C@H](Cc1ccccc1)NC(=O)CNC(=O)CNC(=O)[C@@H](N)Cc1ccc(O)cc1)C(=O)O
current amplitude (K+ current, agonist, photo-uncaging; rat locus coeruleus neurons; concentration not given, large somatic currents): 182 ± 8.5 pA

CCCCc1nc2ccc(/N=N/c3ccc(Cl)cc3)cc2c(-c2ccccc2)c1I
inhibition (APP; amyloid aggregation, inhibitor, fluorescence; 25 µM): 60.9%

CN(C)CC1CCCCC1(O)c1cccc(O)c1 (stereo not shown)
Papp B-to-A (human P-glycoprotein; Caco-2 TC7 monolayer; 50 µM, 3 h, apical pH 7.4, basolateral pH 7.4, with: cyclosporine A 10 µM): 20.1 ± 2.4 ×10⁻⁶ cm/s

NCC(CCC(N)C(=O)O)CC1OC(n2cnc3c(N)ncnc32)C(O)C1O (stereo not shown)
inhibition (DNA (cytosine-5)-methyltransferase 3B (DNMT3B, Homo sapiens, UniProt Q9UBC3); enzyme activity, inhibitor; 20 µM): > 50%

CC(C)C[C@H](N)C(=O)CCl
inhibition (cathepsin H (Capra hircus, UniProt A0A452G5L2); goat liver; 10 µM, pH 7.0, with: Leu-βNA): ~93.5%

CCCCc1cc(-c2ccccc2)c2cc(/N=N/c3ccc([N+](=O)[O-])cc3)ccc2n1
inhibition (APP; amyloid aggregation, inhibitor, fluorescence; 25 µM): 69.9%

O=C(Nc1ccccc1Nc1ccccc1)c1cccnc1Cl
inhibition (Succinate dehydrogenase complex (Sus scrofa, UniProt A5GZW8+D0VWV4+Q007T0+Q0QF01); enzyme activity, double-antibody sandwich ELISA; 1 µM): 39.4%

COC(=O)[C@@H]1CCCN1C(=O)[C@@H](O)[C@H](N)CC(C)C
inhibition (Dipeptidyl peptidase 9 (DPP9, Homo sapiens, UniProt Q86TI2); enzyme activity, inhibitor; concentration not given, with: Ala-Pro-AMC substrate): no inhibition

CC[C@H](C)[C@@H]1NC(=O)CNC(=O)[C@H](CCSC)NC(=O)[C@H](C(C)C)NC(=O)[C@H]([C@@H](C)O)NC(=O)[C@@H]2CSSC[C@@H]3NC(=O)[C@H](Cc4c[nH]cn4)NC(=O)[C@@H](NC(=O)[C@@H](NC(=O)[C@H](Cc4ccccc4)NC(=O)[C@H](C)N)[C@@H](C)O)CSSC[C@@H](C(=O)N[C@@H](CC(C)C)C(=O)O)NC(=O)[C@H](CSSC[C@H](NC(=O)[C@H](CO)NC(=O)[C@H](CCCNC(=N)N)NC(=O)[C@H](CCCNC(=N)N)NC3=O)C(=O)N[C@@H](Cc3ccc(O)cc3)C(=O)N[C@@H](CO)C(=O)N[C@@H]([C@@H](C)O)C(=O)N[C@@H](CCC(=O)O)C(=O)N[C@@H](Cc3ccc(O)cc3)C(=O)N[C@@H](CO)C(=O)N[C@@H](Cc3ccc(O)cc3)C(=O)NCC(=O)N[C@@H]([C@@H](C)O)C(=O)N2)NC(=O)[C@H](Cc2ccccc2)NC(=O)[C@H](CCCNC(=N)N)NC(=O)[C@H](Cc2c[nH]cn2)NC(=O)[C@H](CC(N)=O)NC1=O
inhibition (Amyloid-beta precursor protein, Aβ42 (APP, Homo sapiens, UniProt P05067); amyloid fibril formation, inhibitor, ThT fluorescence; concentration not given, 24 to 30 h, 37 °C, compound ratio 1:1, with: amyloid-beta 20 µM): 82%

CCCCCn1cc(C(=O)c2cccc3c2CC(C)(C)C3)c2ccccc21
change in Emax (Cannabinoid receptor 1 (CNR1, Homo sapiens, UniProt P21554, F174A); Gαi1 engagement, agonist, BRET; baseline: wild type): 32%

CC(C)C(=O)Nc1ccccc1-c1nn[nH]n1
inhibition (Metallo-beta-lactamase type 2 (Serratia marcescens, UniProt P52699); enzyme activity, inhibitor; concentration not given): no inhibition

CCCCCc1cn(CC(=O)N[C@H]2CCOC2=O)nn1
inhibition (lasR; reporter gene, antagonist; 100 µM, with: OdDHL 10 nM): 55%

CCCNC(=O)[C@H](CC(C)C)NC(=O)[C@H](Cc1c[nH]cn1)NC(=O)CNC(=O)[C@@H](NC(=O)[C@H](C)NC(=O)[C@H](Cc1c[nH]c2ccccc12)NC(=O)[C@H](CCC(N)=O)NC(=O)[C@@H](Cc1ccccc1)NC(=O)CCCCCNC(=O)CN1CCN(CC(=O)O)CCN(CC(=O)O)CCN(CC(=O)O)CC1)C(C)C [indium-111 labelled]
tissue uptake (Gastrin-releasing peptide receptor (Mus musculus, UniProt P21729); biodistribution; CF-1 mice, stomach; intravenous, 1 h, with: bombesin 100 µg, blocking): 0.11 ± 0.03 %ID/g

CCCCCCc1cn(-c2cccc(C(=O)N[C@H]3CCOC3=O)c2)nn1
inhibition (lasR; reporter gene, antagonist; 10 µM, with: OdDHL 10 nM): 21%

[Cl][Au-][P+](c1ccccc1)(c1ccccc1)c1cc[cH-]c1.[Cl][Au-][P+](c1ccccc1)(c1ccccc1)c1cc[cH-]c1.[Cl][Ti+2][Cl]
inhibition (Mitogen-activated protein kinase 7 (MAPK7, Homo sapiens, UniProt Q13164); kinase activity; 10 µM): ≥ 50%

Cc1ccc(N2CC3CCC(C2)N3C)cc1C(=O)N[C@H](C)c1cc(-c2cnn(C)c2)nc2ccccc12
inhibition (USP14; enzyme activity; concentration not given): no inhibition

N=C(N)NCCC[C@@H]1NC(=O)[C@H](CCCCNC(=O)CCOCCOCCOCCOCCNC(=O)CN2CCN(CC(=O)O)CCN(CC(=O)O)CCN(CC(=O)O)CC2)NC(=O)[C@@H](Cc2ccccc2)NC(=O)[C@H](CC(=O)O)NC(=O)CNC1=O [indium-111 labelled]
tissue uptake (female athymic nude mice, liver; intravenous, 3 µCi, 4 h, U-87 MG glioma xenograft): 0.9 ± 0.15 %ID/g

CN(C)C=Nc1c(C#N)cnn1-c1ccc(F)c(Cl)c1
inhibition (Aurora kinase B (AURKB, Homo sapiens, UniProt Q96GD4); kinase activity; concentration not given): no inhibition

O=C(Cn1cc(-c2cccc(-c3cn(CC(=O)N[C@H]4CCOC4=O)nn3)c2)nn1)N[C@H]1CCOC1=O
inhibition (lasR; reporter gene, antagonist; 100 µM, with: OdDHL 10 nM): 6%

N=C(N)NCCC[C@@H]1NC(=O)[C@H](CCCCNC(=O)CCOCCOCCOCCOCCNC(=O)CC[C@H](NC(=O)CCOCCOCCOCCOCCNC(=O)CC[C@H](NC(=O)CN2CCN(CC(=O)O)CCN(CC(=O)O)CCN(CC(=O)O)CC2)C(=O)NCCOCCOCCOCCOCCC(=O)N[C@@H](CCC(=O)NCCOCCOCCOCCOCCC(=O)NCCCC[C@@H]2NC(=O)[C@@H](Cc3ccccc3)NC(=O)[C@H](CC(=O)O)NC(=O)CNC(=O)[C@H](CCCNC(=N)N)NC2=O)C(=O)NCCOCCOCCOCCOCCC(=O)NCCCC[C@@H]2NC(=O)[C@@H](Cc3ccccc3)NC(=O)[C@H](CC(=O)O)NC(=O)CNC(=O)[C@H](CCCNC(=N)N)NC2=O)C(=O)NCCOCCOCCOCCOCCC(=O)NCCCC[C@@H]2NC(=O)[C@@H](Cc3ccccc3)NC(=O)[C@H](CC(=O)O)NC(=O)CNC(=O)[C@H](CCCNC(=N)N)NC2=O)NC(=O)[C@@H](Cc2ccccc2)NC(=O)[C@H](CC(=O)O)NC(=O)CNC1=O [indium-111 labelled]
tissue uptake (female athymic nude mice, brain; intravenous, 3 µCi, 4 h, U-87 MG glioma xenograft): 0.12 ± 0.01 %ID/g

A few entries again:
CC(C)C(=O)Nc1ccccc1-c1nn[nH]n1
inhibition (Metallo-beta-lactamase type 2 (Serratia marcescens, UniProt P52699); enzyme activity, inhibitor; concentration not given): no inhibition

CCCCCc1cn(CC(=O)N[C@H]2CCOC2=O)nn1
inhibition (lasR; reporter gene, antagonist; 100 µM, with: OdDHL 10 nM): 55%

CCCNC(=O)[C@H](CC(C)C)NC(=O)[C@H](Cc1c[nH]cn1)NC(=O)CNC(=O)[C@@H](NC(=O)[C@H](C)NC(=O)[C@H](Cc1c[nH]c2ccccc12)NC(=O)[C@H](CCC(N)=O)NC(=O)[C@@H](Cc1ccccc1)NC(=O)CCCCCNC(=O)CN1CCN(CC(=O)O)CCN(CC(=O)O)CCN(CC(=O)O)CC1)C(C)C [indium-111 labelled]
tissue uptake (Gastrin-releasing peptide receptor (Mus musculus, UniProt P21729); biodistribution; CF-1 mice, stomach; intravenous, 1 h, with: bombesin 100 µg, blocking): 0.11 ± 0.03 %ID/g
